Assay results from different studies.
± gives the spread as reported.
Replicase polyprotein 1a 3C-like proteinase: Replicase polyprotein 1a, 3C-like proteinase (Ferret coronavirus, UniProt A0A172B201)
crk3: crk3 (Leishmania mexicana, UniProt O15851)
CDK8: Cyclin-dependent kinase 8 (CDK8, Homo sapiens, UniProt P49336)
UniProt P49336, sequence (whole entry, looked up): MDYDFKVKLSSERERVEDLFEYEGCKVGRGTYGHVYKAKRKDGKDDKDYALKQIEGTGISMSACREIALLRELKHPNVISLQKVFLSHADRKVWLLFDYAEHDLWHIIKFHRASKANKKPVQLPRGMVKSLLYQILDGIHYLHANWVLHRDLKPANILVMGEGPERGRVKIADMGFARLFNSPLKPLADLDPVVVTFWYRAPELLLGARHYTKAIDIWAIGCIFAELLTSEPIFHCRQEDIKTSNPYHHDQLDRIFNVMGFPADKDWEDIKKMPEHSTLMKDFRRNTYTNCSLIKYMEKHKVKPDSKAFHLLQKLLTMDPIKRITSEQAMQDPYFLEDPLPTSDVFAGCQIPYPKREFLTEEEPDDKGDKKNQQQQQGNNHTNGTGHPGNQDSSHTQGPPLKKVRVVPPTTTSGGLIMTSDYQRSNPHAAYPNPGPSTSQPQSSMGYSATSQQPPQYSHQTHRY
Urease: Urease (Canavalia ensiformis, UniProt P07374)
UniProt P07374, sequence (whole entry, looked up): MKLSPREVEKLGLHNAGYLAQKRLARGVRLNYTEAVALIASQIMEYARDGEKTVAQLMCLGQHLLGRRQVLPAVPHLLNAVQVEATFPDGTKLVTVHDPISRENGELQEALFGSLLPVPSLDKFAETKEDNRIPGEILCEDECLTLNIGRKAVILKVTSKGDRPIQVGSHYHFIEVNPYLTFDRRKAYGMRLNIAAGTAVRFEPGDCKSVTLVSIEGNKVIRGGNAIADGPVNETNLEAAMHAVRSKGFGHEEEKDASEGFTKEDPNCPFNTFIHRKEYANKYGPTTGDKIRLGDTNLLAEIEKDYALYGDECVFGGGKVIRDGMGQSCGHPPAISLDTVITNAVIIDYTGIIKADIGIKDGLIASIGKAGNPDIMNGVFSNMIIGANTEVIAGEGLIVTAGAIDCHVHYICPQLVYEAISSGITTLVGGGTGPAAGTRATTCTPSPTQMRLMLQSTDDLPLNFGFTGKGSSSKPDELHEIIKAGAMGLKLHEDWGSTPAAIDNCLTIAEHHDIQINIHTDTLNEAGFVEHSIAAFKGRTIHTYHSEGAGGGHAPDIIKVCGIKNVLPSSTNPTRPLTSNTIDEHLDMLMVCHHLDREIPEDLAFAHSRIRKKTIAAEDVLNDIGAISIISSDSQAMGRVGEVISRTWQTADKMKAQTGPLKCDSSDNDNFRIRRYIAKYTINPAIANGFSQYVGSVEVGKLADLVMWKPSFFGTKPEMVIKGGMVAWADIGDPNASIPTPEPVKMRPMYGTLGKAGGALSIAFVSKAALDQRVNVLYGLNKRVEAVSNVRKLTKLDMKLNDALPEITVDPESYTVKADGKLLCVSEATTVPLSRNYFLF
CDK2 with cyclin A: Cyclin-dependent kinase 2, with cyclin A (CDK2, Homo sapiens, UniProt P24941)
MED23 with ELF3: Mediator of RNA polymerase II transcription subunit 23, with ELF3 (MED23, Homo sapiens, UniProt Q9ULK4)
Plasmepsin IX: Plasmepsin IX (Plasmodium falciparum, UniProt Q8ILG2)
UniProt Q8ILG2, sequence (whole entry, looked up): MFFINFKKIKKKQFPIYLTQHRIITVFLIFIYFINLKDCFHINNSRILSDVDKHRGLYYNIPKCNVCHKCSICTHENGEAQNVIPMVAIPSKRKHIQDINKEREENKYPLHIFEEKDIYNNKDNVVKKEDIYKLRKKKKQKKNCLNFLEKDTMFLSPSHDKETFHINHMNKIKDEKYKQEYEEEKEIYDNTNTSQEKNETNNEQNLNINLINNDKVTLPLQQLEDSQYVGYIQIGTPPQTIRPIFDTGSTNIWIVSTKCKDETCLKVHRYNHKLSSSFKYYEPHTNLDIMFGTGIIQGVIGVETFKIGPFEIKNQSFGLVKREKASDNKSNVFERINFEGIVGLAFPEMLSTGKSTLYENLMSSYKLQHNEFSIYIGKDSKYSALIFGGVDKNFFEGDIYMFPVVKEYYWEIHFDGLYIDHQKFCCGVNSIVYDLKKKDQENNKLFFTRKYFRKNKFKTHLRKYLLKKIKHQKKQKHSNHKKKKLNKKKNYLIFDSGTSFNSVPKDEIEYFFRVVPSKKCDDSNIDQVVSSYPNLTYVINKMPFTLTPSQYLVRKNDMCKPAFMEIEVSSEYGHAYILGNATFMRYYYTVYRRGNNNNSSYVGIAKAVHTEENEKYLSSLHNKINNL
Replicase polyprotein 1ab main protease: Replicase polyprotein 1ab, main protease (Feline coronavirus, UniProt Q98VG9)
UniProt P56817, sequence (whole entry, looked up): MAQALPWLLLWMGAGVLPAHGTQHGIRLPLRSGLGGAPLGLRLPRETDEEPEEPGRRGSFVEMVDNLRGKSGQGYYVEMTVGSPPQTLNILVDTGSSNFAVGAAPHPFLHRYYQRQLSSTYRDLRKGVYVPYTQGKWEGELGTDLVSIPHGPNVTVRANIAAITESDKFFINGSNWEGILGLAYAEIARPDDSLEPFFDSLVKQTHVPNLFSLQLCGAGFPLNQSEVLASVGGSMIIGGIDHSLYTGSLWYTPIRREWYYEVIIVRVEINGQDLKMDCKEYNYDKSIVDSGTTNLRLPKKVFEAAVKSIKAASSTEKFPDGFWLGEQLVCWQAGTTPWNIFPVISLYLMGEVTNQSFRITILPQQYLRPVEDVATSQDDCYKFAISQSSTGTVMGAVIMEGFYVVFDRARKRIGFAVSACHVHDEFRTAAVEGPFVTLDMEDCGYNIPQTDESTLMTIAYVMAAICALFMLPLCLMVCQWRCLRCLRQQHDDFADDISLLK
UniProt P18031, sequence (whole entry, looked up): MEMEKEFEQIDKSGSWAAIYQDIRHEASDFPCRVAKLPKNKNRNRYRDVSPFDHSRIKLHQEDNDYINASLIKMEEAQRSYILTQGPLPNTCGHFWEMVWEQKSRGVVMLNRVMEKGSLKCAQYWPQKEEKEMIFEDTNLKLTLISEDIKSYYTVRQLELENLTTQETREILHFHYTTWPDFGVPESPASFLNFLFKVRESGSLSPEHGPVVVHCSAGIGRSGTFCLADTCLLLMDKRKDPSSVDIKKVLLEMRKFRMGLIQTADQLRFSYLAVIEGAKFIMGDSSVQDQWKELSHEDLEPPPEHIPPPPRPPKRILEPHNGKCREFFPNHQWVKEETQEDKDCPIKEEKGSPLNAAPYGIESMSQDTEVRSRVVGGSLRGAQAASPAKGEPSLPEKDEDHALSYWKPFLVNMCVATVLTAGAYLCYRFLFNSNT
UniProt Q14416, sequence (whole entry, looked up): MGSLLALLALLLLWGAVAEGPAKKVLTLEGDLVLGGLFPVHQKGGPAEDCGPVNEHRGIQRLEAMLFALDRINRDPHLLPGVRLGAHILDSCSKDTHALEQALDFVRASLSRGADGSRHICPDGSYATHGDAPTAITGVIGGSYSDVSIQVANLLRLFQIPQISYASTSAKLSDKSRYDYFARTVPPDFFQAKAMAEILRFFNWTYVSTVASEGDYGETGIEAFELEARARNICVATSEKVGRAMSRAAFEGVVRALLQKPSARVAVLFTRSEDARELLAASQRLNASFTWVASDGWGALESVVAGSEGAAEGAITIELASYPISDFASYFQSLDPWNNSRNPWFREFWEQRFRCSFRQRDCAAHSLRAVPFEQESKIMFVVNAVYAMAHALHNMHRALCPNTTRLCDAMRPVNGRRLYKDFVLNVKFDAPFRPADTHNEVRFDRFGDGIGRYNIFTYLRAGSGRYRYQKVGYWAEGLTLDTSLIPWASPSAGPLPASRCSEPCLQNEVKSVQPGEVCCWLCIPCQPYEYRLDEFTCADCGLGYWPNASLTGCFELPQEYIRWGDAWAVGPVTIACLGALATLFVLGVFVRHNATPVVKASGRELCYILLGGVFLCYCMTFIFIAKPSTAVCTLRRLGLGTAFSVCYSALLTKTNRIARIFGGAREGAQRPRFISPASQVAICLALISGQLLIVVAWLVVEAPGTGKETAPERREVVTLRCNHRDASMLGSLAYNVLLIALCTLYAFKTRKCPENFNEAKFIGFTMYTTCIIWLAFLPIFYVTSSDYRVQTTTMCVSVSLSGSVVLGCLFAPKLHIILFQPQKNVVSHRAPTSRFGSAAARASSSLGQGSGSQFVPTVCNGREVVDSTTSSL

SMILES	target or system	test	test system	setting	how to read	measurement	result
O=C(N[C@@H](CC1CCCCC1)C(=O)N[C@@H](C[C@@H]1CCNC1=O)C(O)S(=O)(=O)O)OCc1cccc(Cl)c1 (some centres unmarked)	Replicase polyprotein 1a 3C-like proteinase	enzyme activity, FRET	NL-2010	–	–	IC50	0.29 ± 0.08 µM
Cc1cccc(-c2ccc3nc(NC(=O)CC4CCCCC4)nn3c2)c1	crk3	enzyme activity, inhibitor, radiometric	–	–	–	IC50	0.01 µM
O=C(O)COc1ccc(Br)cc1C=NNC(=O)Cc1ccccc1 (mixture of isomers)	–	Racine scale 0-5	male mice, pilocarpine-induced seizures	oral, 20 mg/kg, 1 h after pilocarpine, unit not given, added: pilocarpine 300 mg/kg i.p.	higher = more severe	seizure severity	2.2 ± 0.42
O=C(N[C@@H](CC1CCCCC1)C(=O)N[C@@H](C[C@@H]1CCNC1=O)C(O)S(=O)(=O)O)OCc1ccccc1 (some centres unmarked)	Replicase polyprotein 1a 3C-like proteinase	enzyme activity, FRET	NL-2010	–	–	IC50	1.04 ± 0.28 µM
Cc1cccc(-c2ccc3nc(NC(=O)CCC4CCCC4)nn3c2)c1	crk3	enzyme activity, inhibitor, radiometric	–	–	–	IC50	< 0.005 µM
CC(=O)Nc1ccc(NS(=O)(=O)c2ccc3c(c2)C(=C(C)C)C(=O)N3)cc1	CDK8	enzyme activity, inhibitor, FRET	–	–	–	IC50	1.68 µM
Oc1ccccc1C1=NN(c2ccccc2)C(c2ccc(F)cc2)C1 (centres unmarked)	Urease	enzyme activity, inhibitor, absorbance	–	pH 8.2	–	IC50	13.5 µM
CC(=O)Nc1nc2ccc(-c3cccc(C)c3)cn2n1	CDK2 with cyclin A	enzyme activity, inhibitor	–	–	–	IC50	26 µM
O=C(C=Cc1ccc(Cl)cc1)c1ccccc1O	MED23 with ELF3	SEAP reporter gene, inhibitor	–	–	–	IC50	3.93 ± 0.74 µM
N#Cc1ccc(C2CC(c3ccccc3O)=NN2c2ccccc2)cc1 (centres unmarked)	Urease	enzyme activity, inhibitor, absorbance	–	pH 8.2	–	IC50	9.35 µM
CC(C)C[C@H](NC(=O)[C@@H](NC(=O)[C@H](CCONC(=N)N)NC(=O)OCc1ccccc1)C1CCCCC1)[C@@H](O)CC(=O)NCCc1ccccc1	Plasmepsin IX	enzyme activity, inhibitor	–	–	–	IC50	> 99 µM
O=C(Nc1cc(-c2ccccc2)n[nH]1)C1COc2ccccc2O1 (centres unmarked)	crk3	enzyme activity, inhibitor, radiometric	–	–	–	IC50	0.65 µM
CC(C)C[C@H](NC(=O)[C@@H](NC(=O)[C@H](CCCNC(=N)N)NS(=O)(=O)Cc1ccccc1)C(C)C)[C@@H](O)CC(=O)NCCc1ccccc1	Plasmepsin IX	enzyme activity, inhibitor	–	–	–	IC50	50.7 µM
O=C(C=Cc1ccco1)c1cccc(O)c1	MED23 with ELF3	SEAP reporter gene, inhibitor	–	–	–	IC50	2.13 ± 0.04 µM
CC(C)C[C@H](NC(=O)OCc1ccccc1)C(=O)N[C@@H](C[C@@H]1CCNC1=O)C(=O)C(=O)NC1CCCCC1	Replicase polyprotein 1ab main protease	enzyme activity, inhibitor, FRET	–	–	–	IC50	1.41 µM
O=C(Nc1nc2ccccn2n1)C1CCCCC1	crk3	enzyme activity, inhibitor, radiometric	–	–	–	IC50	> 100 µM
FC(F)(F)c1c(-c2ccc(NC3CCOCC3)c(Cl)c2)ccn2c(CC3CC3)nnc12	Metabotropic glutamate receptor 2 (GRM2, Homo sapiens, UniProt Q14416)	agonist	–	no glutamate	–	EC50	0.631 µM
Cc1cccc(-c2ccc3nc(NC(=O)CC4CCCC4)nn3c2)c1	crk3	enzyme activity, inhibitor, radiometric	–	–	–	IC50	0.04 µM
O=C[C@H](C[C@@H]1CCNC1=O)NC(=O)[C@H](CC1CCCCC1)NC(=O)OCc1cccc(Cl)c1	Replicase polyprotein 1ab main protease	enzyme activity, inhibitor, FRET	–	–	–	IC50	0.63 µM

SMILES	target or system	test	test system	setting	how to read	measurement	result
Cc1cccc(C)c1-c1ccc2nc(NC(=O)C3CCCCC3)nn2c1	CDK2 with cyclin A	enzyme activity, inhibitor	–	–	–	IC50	> 100 µM
CCC(=O)N1N=C(c2cccc(O)c2)CC1c1ccc(OC)cc1 (centres unmarked)	MED23 with ELF3	SEAP reporter gene, inhibitor	–	–	–	IC50	5.01 ± 1.16 µM
CC[C@H](C)[C@@H]1NC(=O)[C@H](CC(C)C)NC(=O)[C@H](Cc2ccccc2)NC(=O)[C@H](Cc2ccccc2)NC(=O)[C@@H]2CCCN2C(=O)[C@@H]2CCCN2C(=O)[C@H](C(C)C)NC(=O)[C@H](CC(C)C)NC(=O)[C@H]([C@@H](C)CC)NC1=O	SK-BR-3	LDH release	–	400 µg/mL, 48 h	–	cytotoxicity	45%
O=C[C@H](C[C@@H]1CCNC1=O)NC(=O)[C@H](CC1CCCCC1)NS(=O)(=O)c1cccc(Cl)c1	Replicase polyprotein 1ab main protease	enzyme activity, inhibitor, FRET	–	–	–	IC50	10.7 µM
CCOc1ccc(NS(=O)(=O)c2ccc3c(c2)C(=C(C)C)C(=O)N3)cc1	CDK8	enzyme activity, inhibitor, FRET	–	–	–	IC50	> 10 µM
Cc1ccc(Oc2ccc(-c3ccn4c(CC5CC5)nnc4c3C(F)(F)F)cc2F)c(C)n1	–	–	male Sprague Dawley rat, brain and plasma	subcutaneous, 10 mg/kg, 2 h	baseline: brain over plasma	tissue/plasma ratio	0.8
O=C[C@H](C[C@@H]1CCNC1=O)NC(=O)[C@H](CC1CCCCC1)NS(=O)(=O)c1ccc(Cl)cc1	Replicase polyprotein 1ab main protease	enzyme activity, inhibitor, FRET	–	–	–	IC50	10.1 µM
Oc1ccccc1C1=NN(c2ccccc2)C(c2ccccc2C(F)(F)F)C1 (centres unmarked)	Urease	enzyme activity, inhibitor, absorbance	–	pH 8.2	–	IC50	9.18 µM
O=C(N[C@@H](CC1CCCCC1)C(=O)N[C@@H](C[C@@H]1CCNC1=O)C(=O)C(=O)NC1CC1)OCc1cccc(Cl)c1	Replicase polyprotein 1a 3C-like proteinase	enzyme activity, FRET	NL-2010	–	–	IC50	> 50 µM
CC(C)C[C@H](NC(=O)[C@@H](NC(=O)[C@H](CCONC(=N)N)NC(=O)OCc1ccccc1)C(C)C)[C@@H](O)CC(=O)NCCc1ccccc1	Beta-secretase 1 (BACE1, Homo sapiens, UniProt P56817)	enzyme activity, inhibitor	–	–	–	IC50	> 1 µM
O=C(O)COc1ccc(Br)cc1/C=N/NC(=O)c1ccc(Cl)cc1	–	Racine scale 0-5	male mice, pilocarpine-induced seizures	oral, 20 mg/kg, 1.5 h after pilocarpine, unit not given, added: pilocarpine 300 mg/kg i.p.	higher = more severe	seizure severity	1.9 ± 0.32
CCc1ccc(NS(=O)(=O)c2ccc3c(c2)C(=C(C)C)C(=O)N3)cc1	CDK8	enzyme activity, inhibitor, FRET	–	–	–	IC50	> 10 µM
Cc1nc(C#N)cnc1Cl	Cellular tumor antigen p53, DNA-binding domain (TP53, Homo sapiens, UniProt P04637, M133L/N239Y/N268D/V203A/Y220C)	differential scanning fluorimetry	–	1000 µM, 30 min	–	ΔTm	1.83 °C
COc1ccc(C=CC(=O)c2ccccc2O)c2ccccc12	MED23 with ELF3	SEAP reporter gene, inhibitor	–	–	–	IC50	2.39 ± 0.36 µM
O=C[C@H](C[C@@H]1CCNC1=O)NC(=O)[C@H](CC1CCCCC1)NC(=O)OCc1ccccc1	Replicase polyprotein 1a 3C-like proteinase	enzyme activity, FRET	NL-2010	–	–	IC50	1.45 ± 0.3 µM
Brc1ccccc1Nc1ncnc2[nH]ncc12	CDK2 with cyclin A	enzyme activity, inhibitor	–	–	–	IC50	1 µM
CC(C)(O)CC(=O)CC(C(=O)O)C1CC[C@]2(C)C1CCC1[C@@]3(C)CC[C@H](O)C(C)(C)C3CC[C@]12C (some centres unmarked)	Tyrosine-protein phosphatase non-receptor type 1 (PTPN1, Homo sapiens, UniProt P18031)	enzyme activity, inhibitor, absorbance	–	–	–	IC50	4.26 µM
O=C1Nc2ccc(S(=O)(=O)Nc3ccccc3)cc2C1=C1CCCC1	CDK8	enzyme activity, inhibitor, FRET	–	–	–	IC50	0.558 µM
Oc1ccccc1C1=NN(c2ccccc2)C(c2ccc(C(F)(F)F)cc2)C1 (centres unmarked)	Urease	enzyme activity, inhibitor, absorbance	–	pH 8.2	–	IC50	12.6 µM

Repeated from above:
SMILES	target or system	test	test system	setting	how to read	measurement	result
CC(C)C[C@H](NC(=O)[C@@H](NC(=O)[C@H](CCONC(=N)N)NC(=O)OCc1ccccc1)C1CCCCC1)[C@@H](O)CC(=O)NCCc1ccccc1	Plasmepsin IX	enzyme activity, inhibitor	–	–	–	IC50	> 99 µM
CCC(=O)N1N=C(c2cccc(O)c2)CC1c1ccc(OC)cc1 (centres unmarked)	MED23 with ELF3	SEAP reporter gene, inhibitor	–	–	–	IC50	5.01 ± 1.16 µM
CC(C)C[C@H](NC(=O)OCc1ccccc1)C(=O)N[C@@H](C[C@@H]1CCNC1=O)C(=O)C(=O)NC1CCCCC1	Replicase polyprotein 1ab main protease	enzyme activity, inhibitor, FRET	–	–	–	IC50	1.41 µM
CC(C)(O)CC(=O)CC(C(=O)O)C1CC[C@]2(C)C1CCC1[C@@]3(C)CC[C@H](O)C(C)(C)C3CC[C@]12C (some centres unmarked)	Tyrosine-protein phosphatase non-receptor type 1 (PTPN1, Homo sapiens, UniProt P18031)	enzyme activity, inhibitor, absorbance	–	–	–	IC50	4.26 µM
